Experimental data pooled from the literature.
Each numbered part is a random draw from the data of one study; scales do not carry over between parts. Several values in a cell are separate wells, animals, samples, runs or records.
Sequence of UniProt P11362 (whole entry, looked up): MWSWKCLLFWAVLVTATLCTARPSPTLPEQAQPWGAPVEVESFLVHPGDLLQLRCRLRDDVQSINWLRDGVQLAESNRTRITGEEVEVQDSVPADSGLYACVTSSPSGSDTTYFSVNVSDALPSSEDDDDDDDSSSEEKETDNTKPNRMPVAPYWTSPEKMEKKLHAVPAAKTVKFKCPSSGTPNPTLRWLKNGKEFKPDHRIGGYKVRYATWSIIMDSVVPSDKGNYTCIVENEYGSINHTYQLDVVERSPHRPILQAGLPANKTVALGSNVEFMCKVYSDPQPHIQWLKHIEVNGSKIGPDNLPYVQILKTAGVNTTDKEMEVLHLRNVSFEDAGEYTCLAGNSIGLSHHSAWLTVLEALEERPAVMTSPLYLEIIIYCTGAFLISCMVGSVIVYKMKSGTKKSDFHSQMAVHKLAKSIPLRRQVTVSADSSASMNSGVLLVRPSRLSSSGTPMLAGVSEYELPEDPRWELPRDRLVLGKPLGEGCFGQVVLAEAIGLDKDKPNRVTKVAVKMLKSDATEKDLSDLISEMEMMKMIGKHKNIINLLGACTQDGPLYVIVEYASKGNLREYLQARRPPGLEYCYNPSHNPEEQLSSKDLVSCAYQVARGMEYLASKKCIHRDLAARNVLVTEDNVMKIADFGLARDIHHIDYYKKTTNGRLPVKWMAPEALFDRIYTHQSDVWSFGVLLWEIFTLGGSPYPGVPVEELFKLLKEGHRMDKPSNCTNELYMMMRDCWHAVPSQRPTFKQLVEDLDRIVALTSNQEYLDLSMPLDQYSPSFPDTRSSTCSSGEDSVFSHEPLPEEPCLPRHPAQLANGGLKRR
Sequence of UniProt Q9H2K8 (whole entry, looked up): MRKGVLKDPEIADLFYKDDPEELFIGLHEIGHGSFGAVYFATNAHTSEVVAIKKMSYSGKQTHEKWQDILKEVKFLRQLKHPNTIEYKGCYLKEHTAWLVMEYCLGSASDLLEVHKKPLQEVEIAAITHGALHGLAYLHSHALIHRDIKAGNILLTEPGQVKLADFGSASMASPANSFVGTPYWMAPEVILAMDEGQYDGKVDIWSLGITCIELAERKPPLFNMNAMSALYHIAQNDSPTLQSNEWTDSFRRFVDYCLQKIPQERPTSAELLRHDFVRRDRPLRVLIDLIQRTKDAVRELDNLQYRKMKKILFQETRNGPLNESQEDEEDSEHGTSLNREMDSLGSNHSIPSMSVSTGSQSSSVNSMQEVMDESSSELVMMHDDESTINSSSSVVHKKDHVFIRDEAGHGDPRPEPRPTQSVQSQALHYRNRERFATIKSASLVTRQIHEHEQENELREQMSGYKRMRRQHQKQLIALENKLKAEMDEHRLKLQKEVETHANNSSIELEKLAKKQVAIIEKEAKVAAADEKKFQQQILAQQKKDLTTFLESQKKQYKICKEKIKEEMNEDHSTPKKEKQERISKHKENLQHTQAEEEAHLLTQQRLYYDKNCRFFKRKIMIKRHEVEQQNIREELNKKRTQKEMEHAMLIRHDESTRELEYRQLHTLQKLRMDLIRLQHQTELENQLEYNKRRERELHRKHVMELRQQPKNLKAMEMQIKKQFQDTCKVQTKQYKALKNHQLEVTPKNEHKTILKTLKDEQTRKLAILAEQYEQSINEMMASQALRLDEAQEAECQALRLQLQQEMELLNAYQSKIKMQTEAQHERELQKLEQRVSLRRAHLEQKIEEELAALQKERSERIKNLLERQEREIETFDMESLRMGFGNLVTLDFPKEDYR
Sequence of UniProt P10721 (whole entry, looked up): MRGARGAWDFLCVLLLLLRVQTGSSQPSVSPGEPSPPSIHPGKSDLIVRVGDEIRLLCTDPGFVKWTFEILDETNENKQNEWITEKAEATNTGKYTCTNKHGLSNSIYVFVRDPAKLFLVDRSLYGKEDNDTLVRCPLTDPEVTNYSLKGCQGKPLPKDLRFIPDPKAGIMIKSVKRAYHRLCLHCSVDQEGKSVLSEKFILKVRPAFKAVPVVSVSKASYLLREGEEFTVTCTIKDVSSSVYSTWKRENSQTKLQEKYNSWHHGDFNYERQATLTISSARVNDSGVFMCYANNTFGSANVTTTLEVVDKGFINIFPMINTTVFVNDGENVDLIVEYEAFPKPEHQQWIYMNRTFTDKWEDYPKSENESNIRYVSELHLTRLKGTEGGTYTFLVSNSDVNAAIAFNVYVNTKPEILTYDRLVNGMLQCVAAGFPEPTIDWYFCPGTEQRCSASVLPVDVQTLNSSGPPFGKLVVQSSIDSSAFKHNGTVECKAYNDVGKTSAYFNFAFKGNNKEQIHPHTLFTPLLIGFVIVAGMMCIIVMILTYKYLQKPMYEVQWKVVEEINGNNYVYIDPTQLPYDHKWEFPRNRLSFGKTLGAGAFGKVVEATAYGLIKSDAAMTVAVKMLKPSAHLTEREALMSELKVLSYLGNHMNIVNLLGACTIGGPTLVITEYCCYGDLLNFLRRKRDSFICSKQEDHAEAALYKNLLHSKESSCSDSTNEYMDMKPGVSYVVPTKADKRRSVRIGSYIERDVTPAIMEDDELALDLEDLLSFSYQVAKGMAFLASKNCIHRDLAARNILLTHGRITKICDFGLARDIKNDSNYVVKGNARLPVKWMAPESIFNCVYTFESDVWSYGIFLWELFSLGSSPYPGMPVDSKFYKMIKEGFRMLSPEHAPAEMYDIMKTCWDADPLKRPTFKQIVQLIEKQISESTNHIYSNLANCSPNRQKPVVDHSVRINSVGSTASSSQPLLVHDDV
Sequence of UniProt Q13164 (whole entry, looked up): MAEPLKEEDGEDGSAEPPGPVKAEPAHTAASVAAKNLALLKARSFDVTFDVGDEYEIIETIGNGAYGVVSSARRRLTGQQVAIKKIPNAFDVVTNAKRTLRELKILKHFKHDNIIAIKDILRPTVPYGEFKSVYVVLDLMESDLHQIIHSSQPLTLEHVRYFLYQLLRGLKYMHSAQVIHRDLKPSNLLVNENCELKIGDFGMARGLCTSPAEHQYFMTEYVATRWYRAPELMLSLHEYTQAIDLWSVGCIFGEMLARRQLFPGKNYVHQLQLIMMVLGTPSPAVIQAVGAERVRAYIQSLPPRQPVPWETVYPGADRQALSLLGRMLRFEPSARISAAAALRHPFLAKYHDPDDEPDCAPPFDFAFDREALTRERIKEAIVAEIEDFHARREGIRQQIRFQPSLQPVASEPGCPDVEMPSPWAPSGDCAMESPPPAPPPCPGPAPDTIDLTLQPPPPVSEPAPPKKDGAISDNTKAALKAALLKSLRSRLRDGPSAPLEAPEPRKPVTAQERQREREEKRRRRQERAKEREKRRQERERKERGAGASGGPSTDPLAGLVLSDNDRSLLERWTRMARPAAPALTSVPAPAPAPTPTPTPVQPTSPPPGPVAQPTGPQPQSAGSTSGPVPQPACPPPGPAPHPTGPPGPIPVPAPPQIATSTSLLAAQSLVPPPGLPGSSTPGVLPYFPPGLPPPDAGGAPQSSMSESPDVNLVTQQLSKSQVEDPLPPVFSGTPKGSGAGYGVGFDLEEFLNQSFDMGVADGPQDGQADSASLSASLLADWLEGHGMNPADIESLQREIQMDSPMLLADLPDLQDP

Sample 1 — tested at: 1 µM
SMILES: CC[C@@]1(c2cccc(C(F)(F)F)c2)C2=C(Nc3n[nH]cc31)[C@H](F)C(C)(C)CC2=O (single isomer, unassigned)
| target | assay | scale | remaining binding [%] |
| --- | --- | --- | --- |
| WNK4 (Homo sapiens, UniProt Q96J92) | kinase binding, KINOMEscan | baseline: DMSO control | 81 |
| MAP3K15 (Homo sapiens, UniProt Q6ZN16) | binding, competition with immobilised ligand |  | 91 |
| PIK3CA (Homo sapiens, UniProt P42336) | kinase binding, KINOMEscan | baseline: DMSO control | 100 |
| MUSK (Homo sapiens, UniProt O15146) | kinase binding, KINOMEscan | baseline: DMSO control | 97 |
| KIT (Homo sapiens, UniProt P10721) | kinase binding, KINOMEscan | baseline: DMSO control | 100 |
| MAPK7 (Homo sapiens, UniProt Q13164) | kinase binding, KINOMEscan | baseline: DMSO control | 100 |
| Tyrosine-protein kinase ABL1, non-phosphorylated (ABL1, Homo sapiens, UniProt P00519, F317L) | kinase binding, KINOMEscan | baseline: DMSO control | 100 |
| FGFR1 (Homo sapiens, UniProt P11362) | kinase binding, KINOMEscan | baseline: DMSO control | 100 |
| EPHA7 (Homo sapiens, UniProt Q15375) | binding, competition with immobilised ligand |  | 100 |
| SGK1 (Homo sapiens, UniProt O00141) | binding, competition with immobilised ligand |  | 92 |
| CSNK1E (Homo sapiens, UniProt P49674) | binding, competition with immobilised ligand |  | 100 |
| NTRK2 (Homo sapiens, UniProt Q16620) | kinase binding, KINOMEscan | baseline: DMSO control | 89 |
| EGFR (Homo sapiens, UniProt P00533, L861Q) | kinase binding, KINOMEscan | baseline: DMSO control | 100 |
| EPHA2 (Homo sapiens, UniProt P29317) | kinase binding, KINOMEscan | baseline: DMSO control | 100 |
| STK39 (Homo sapiens, UniProt Q9UEW8) | binding, competition with immobilised ligand |  | 99 |
| EGFR (Homo sapiens, UniProt P00533) | binding, competition with immobilised ligand |  | 97 |
| MAPK15 (Homo sapiens, UniProt Q8TD08) | binding, competition with immobilised ligand |  | 96 |
| CDK8 (Homo sapiens, UniProt P49336) | kinase binding, KINOMEscan | baseline: DMSO control | 100 |
| TAOK3 (Homo sapiens, UniProt Q9H2K8) | kinase binding, KINOMEscan | baseline: DMSO control | 97 |

Sample 2 — cell line: U-87 MG; tested at: concentration not given; baseline: DMSO
SMILES: CCN1/C(=C/C=C2\CCCC(/C=C/C3=[N+](CC)c4ccccc4C3(C)C)=C2NCCCCCCCCN2CCC(Nc3nc4ccccc4n3Cc3ccc(F)cc3)CC2)C(C)(C)c2ccccc21
| assay | log2 fold change |
| --- | --- |
| item: PPIL6 mRNA | 1.96 |
| item: CCN3 mRNA | -1.02 |
| item: ABCC2 mRNA | -2.07 |
| item: LCTL mRNA | -3.06 |
| item: RAB7B mRNA | -3.14 |
| item: LMNB1 mRNA | -3.31 |
| item: KLHL28 mRNA | 1.11 |
| item: CPLX3 mRNA | 4.53 |
| item: JUN mRNA | 0.922 |
| item: NPY4R mRNA | -3.88 |
| item: TMEM255A mRNA | -2.55 |
| item: COL17A1 mRNA | -2.16 |
| item: NPTXR mRNA | -1.63 |
| item: SERPINA9 mRNA | 5.83 |
| item: PTX3 mRNA | 1.91 |
| item: TUBB4B mRNA | -1.8 |

Sample 3
Compound: CC(C)=CCN1C(=O)C(O)(C(=O)O)Oc2cc(F)ccc21 (stereo not drawn)
| organism | assay | test system | conditions | scale | inhibition |
| --- | --- | --- | --- | --- | --- |
| Arabidopsis thaliana | hypocotyl length | Col-0 | 50.0 µg/mL, 7 days, seed germination, dark |  | 13% |
| Arabidopsis thaliana | root length | Col-0 | 12.5 µg/mL, 7 days, seed germination, dark |  | 12.6% |
| Arabidopsis thaliana | root length | Col-0 | 6.25 µg/mL, 7 days, seed germination, dark |  | 11.9% |
| Arabidopsis thaliana | root length | Col-0 | 3.13 µg/mL, 7 days, seed germination, dark |  | 10.7% |
| Arabidopsis thaliana | hypocotyl length | Col-0, seedlings | 50 µg/mL |  | 13% |
| Arabidopsis thaliana | root length | Col-0, seedlings | 12.5 µg/mL | baseline: water control | 12.6% |
| Arabidopsis thaliana | root length | Col-0 | 25.0 µg/mL, 7 days, seed germination, dark |  | 17.9% |
| Setaria viridis | fresh weight |  | 150 g ai/ha, pre-emergence treatment |  | 86.5% and 86.4% and 88.4% |
| Arabidopsis thaliana | hypocotyl length | Col-0 | 6.25 µg/mL, 7 days, seed germination, dark |  | 3.9% |
| Echinochloa crus-galli | fresh weight |  | 150 g ai/ha, post-emergence treatment |  | 40.5% and 42.9% and 41.6% |
| Arabidopsis thaliana | root length | Col-0, seedlings | 100 µg/mL | baseline: water control | 41% |
| Arabidopsis thaliana | hypocotyl length | Col-0, seedlings | 3.125 µg/mL |  | -1.39% |
| Abutilon theophrasti | fresh weight |  | 150 g ai/ha, pre-emergence treatment |  | 79.2% and 77.4% |
| Arabidopsis thaliana | root length | Col-0, seedlings | 3.125 µg/mL | baseline: water control | 10.7% |

Sample 4 — effect on: thermal unfolding; method: differential scanning fluorimetry; tested at: 5.5 µM; reading: higher = more unfolded
Compound: C[C@@H]1CN(c2ccc(-c3cc(C(=O)NCCOCCOCCOCCOCCOCCOCCNC(=O)/C=C/c4[nH]cc(C(=O)N[C@@H](CC(N)=O)c5ccc(F)c(Cl)c5)c4-c4ccc(Cl)cc4F)ccc3F)cc2NC(=O)c2ccc(F)cc2C(F)(F)F)C[C@H](C)N1C
DCAF1: DDB1- and CUL4-associated factor 1 (DCAF1, Homo sapiens, UniProt Q9Y4B6)
Sequence of UniProt Q9Y4B6 (whole entry, looked up): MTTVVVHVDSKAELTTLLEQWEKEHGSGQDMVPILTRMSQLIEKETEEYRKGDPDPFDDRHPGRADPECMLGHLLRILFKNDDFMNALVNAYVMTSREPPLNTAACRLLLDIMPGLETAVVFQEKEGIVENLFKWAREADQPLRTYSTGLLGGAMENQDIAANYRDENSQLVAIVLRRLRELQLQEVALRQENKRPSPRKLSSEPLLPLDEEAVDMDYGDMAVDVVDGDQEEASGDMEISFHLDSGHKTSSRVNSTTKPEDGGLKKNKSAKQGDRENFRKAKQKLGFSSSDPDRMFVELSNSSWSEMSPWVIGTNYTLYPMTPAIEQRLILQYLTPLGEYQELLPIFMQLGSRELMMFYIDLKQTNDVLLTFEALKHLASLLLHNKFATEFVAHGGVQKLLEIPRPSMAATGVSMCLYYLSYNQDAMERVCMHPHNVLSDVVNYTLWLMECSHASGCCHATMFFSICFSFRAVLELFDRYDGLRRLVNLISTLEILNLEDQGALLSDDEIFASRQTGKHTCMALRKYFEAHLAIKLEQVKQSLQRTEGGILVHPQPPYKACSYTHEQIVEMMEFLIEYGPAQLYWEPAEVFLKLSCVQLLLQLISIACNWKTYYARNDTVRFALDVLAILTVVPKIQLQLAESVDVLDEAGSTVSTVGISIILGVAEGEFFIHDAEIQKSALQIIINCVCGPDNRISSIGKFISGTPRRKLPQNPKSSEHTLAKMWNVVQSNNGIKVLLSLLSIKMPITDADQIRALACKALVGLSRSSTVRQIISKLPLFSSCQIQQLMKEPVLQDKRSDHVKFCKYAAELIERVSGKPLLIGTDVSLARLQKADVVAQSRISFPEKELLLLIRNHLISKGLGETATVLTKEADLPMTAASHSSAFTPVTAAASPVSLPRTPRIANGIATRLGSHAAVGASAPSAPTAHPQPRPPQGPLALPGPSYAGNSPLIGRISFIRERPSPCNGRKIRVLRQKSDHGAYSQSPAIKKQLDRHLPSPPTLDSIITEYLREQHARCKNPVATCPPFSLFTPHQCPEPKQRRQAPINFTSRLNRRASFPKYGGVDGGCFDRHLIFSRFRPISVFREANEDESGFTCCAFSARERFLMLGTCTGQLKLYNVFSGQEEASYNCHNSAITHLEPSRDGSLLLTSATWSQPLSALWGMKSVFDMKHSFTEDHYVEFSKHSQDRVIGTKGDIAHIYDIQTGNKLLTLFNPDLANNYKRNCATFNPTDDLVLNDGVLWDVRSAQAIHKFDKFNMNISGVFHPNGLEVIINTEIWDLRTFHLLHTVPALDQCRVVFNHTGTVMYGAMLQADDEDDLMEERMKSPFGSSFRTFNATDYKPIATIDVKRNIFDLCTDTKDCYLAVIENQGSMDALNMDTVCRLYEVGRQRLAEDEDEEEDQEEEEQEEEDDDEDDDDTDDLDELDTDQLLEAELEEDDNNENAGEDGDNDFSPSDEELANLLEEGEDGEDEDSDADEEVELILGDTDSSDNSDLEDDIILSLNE
WDR5: WD repeat-containing protein 5 (WDR5, Homo sapiens, UniProt P61964)
| target | conditions | SYPRO Orange fluorescence [a.u.] |
| --- | --- | --- |
| DCAF1 | 82.61 °C | 38000 |
| DCAF1 | 50.6 °C | 18600 |
| DCAF1 | 45.4 °C | 14600 |
| DCAF1 | 36 °C | 10300 |
| DCAF1 | 87.61 °C | 34100 |
| WDR5 | 64.61 °C | 16000 |
| WDR5 | 49.8 °C | 16300 |
| DCAF1 | 57.81 °C | 37700 |
| WDR5 | 55.61 °C | 16500 |
| WDR5 | 84.61 °C | 62700 |
| WDR5 | 86.41 °C | 60100 |

Repeated from above (sample 2):
| assay | log2 fold change |
| --- | --- |
| item: TMEM255A mRNA | -2.55 |
| item: COL17A1 mRNA | -2.16 |
| item: NPTXR mRNA | -1.63 |
| item: SERPINA9 mRNA | 5.83 |
| item: PTX3 mRNA | 1.91 |
